Assay results pooled from the literature.
A part holds a random share of what one study measured. Several values in a cell are separate wells, animals, samples, runs or records.
Chain of UniProt O43318 (whole entry, looked up): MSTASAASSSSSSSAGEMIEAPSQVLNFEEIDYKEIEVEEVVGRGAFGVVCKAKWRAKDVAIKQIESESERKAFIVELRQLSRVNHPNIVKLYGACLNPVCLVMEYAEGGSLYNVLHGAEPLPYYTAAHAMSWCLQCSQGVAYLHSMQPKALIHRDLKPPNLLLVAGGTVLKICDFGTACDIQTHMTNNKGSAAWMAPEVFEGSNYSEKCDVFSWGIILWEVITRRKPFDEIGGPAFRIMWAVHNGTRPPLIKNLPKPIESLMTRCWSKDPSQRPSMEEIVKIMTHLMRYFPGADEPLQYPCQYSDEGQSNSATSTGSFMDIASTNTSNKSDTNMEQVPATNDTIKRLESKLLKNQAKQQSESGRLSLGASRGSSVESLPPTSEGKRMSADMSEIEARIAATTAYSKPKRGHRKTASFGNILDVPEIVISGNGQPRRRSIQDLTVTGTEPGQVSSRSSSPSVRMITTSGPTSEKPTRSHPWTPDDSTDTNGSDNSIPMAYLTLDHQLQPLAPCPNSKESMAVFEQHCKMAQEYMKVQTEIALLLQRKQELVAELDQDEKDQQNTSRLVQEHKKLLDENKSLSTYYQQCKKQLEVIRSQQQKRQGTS
Chain of UniProt Q13153 (whole entry, looked up): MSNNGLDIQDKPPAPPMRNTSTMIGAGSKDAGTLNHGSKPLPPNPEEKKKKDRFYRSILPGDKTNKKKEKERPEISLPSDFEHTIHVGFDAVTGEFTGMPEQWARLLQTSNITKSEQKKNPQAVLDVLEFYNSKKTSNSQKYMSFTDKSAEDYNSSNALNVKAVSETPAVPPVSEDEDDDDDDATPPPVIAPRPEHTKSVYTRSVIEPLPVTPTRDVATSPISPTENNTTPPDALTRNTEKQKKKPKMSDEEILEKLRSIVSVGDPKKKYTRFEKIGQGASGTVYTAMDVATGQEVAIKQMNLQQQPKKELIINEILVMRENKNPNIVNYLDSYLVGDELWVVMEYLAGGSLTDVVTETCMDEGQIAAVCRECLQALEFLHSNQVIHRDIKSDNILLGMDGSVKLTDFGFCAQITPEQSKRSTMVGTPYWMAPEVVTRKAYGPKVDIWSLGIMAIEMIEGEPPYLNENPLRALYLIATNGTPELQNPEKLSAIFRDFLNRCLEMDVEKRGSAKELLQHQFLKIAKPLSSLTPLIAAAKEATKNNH
Chain of UniProt Q9NQU5 (whole entry, looked up): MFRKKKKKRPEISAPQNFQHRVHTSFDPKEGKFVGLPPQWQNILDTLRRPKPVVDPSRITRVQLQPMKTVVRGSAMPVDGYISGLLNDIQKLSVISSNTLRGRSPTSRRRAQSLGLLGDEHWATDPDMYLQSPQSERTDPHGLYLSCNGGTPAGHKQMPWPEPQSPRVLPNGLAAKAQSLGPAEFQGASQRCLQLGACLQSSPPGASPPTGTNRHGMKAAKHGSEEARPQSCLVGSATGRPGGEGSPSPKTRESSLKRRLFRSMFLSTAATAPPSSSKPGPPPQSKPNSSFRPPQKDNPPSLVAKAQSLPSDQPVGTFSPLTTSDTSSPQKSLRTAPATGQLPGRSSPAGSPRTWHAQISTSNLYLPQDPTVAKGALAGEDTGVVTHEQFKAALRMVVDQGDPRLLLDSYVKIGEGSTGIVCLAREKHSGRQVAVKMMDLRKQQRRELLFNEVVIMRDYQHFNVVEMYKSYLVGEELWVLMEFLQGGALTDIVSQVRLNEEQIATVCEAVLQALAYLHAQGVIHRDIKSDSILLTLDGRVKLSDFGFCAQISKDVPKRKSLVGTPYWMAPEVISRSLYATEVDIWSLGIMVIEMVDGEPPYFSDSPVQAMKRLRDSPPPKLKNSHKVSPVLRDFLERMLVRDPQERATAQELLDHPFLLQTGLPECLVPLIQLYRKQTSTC
Chain of UniProt P41279 (whole entry, looked up): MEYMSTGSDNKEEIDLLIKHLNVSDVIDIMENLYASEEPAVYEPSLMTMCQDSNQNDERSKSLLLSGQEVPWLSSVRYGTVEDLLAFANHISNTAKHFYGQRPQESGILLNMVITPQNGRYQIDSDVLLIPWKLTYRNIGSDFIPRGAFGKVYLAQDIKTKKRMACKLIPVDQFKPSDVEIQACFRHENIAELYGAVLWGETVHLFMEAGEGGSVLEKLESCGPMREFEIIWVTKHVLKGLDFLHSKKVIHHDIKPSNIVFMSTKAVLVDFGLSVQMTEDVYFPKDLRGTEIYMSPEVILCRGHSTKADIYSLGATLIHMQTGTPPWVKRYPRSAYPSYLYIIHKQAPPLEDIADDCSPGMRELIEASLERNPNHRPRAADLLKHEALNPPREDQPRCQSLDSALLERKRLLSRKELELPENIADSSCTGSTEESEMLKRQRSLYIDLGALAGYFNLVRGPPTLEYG

Sample 1 — Structure (SMILES): CC(C)(C)c1cc(C=C(C#N)C#N)cc(Br)c1O; read-out: enzyme activity; action: inhibitor; tested at: 0.5 µM; endpoint: remaining activity
Protein kinase C gamma type (PRKCG, Homo sapiens, UniProt P05129): 90.4%
Serine/threonine-protein kinase PAK 1 (PAK1, Homo sapiens, UniProt Q13153); reference: control: 89.9%
Mitogen-activated protein kinase kinase kinase 8 (MAP3K8, Homo sapiens, UniProt P41279): 104%
Mitogen-activated protein kinase kinase kinase 7 (MAP3K7, Homo sapiens, UniProt O43318): 87.9%
Serine/threonine-protein kinase PAK 6 (PAK6, Homo sapiens, UniProt Q9NQU5); reference: control: 101%

Sample 2 — cell line: HEK-293T; read-out: pseudovirus infection; method: FDA-approved drug library counter-screen; organism: VSV pseudotyped with VSV-G; tested at: 10 µM; time: 16 h; reference: vehicle-treated; endpoint: GFP-positive cells
O=C(C1CCCCC1)N1CC(=O)N2CCc3ccccc3C2C1 (stereo not drawn): 100%
Nc1nc(F)nc2c1ncn2[C@@H]1O[C@H](COP(=O)(O)O)[C@@H](O)[C@@H]1O: 128%
CCCCN1CCCC[C@H]1C(=O)Nc1c(C)cccc1C: 122%
Nc1ccncc1: 101%
CC(C(=O)O)c1ccc(-c2ccccc2)c(F)c1 (stereo not drawn): 76.7%
Nc1ccn(C[C@@H](CO)OCP(=O)(O)O)c(=O)n1: 120%
Nc1ccc(/N=N/c2ccccc2)c(N)n1: 106%

Further values, each from its own experiment
CCOc1cc(=O)n2c(c1C(=O)N1CCC3(CC1)OCCO3)CCCCC2 — remaining compound (human, microsomes or S9; 2 µM, 0.5 h): 91.5%
CN(N=O)C(=O)N[C@@H]1[C@@H](O)[C@H](O)[C@@H](CO)O[C@@H]1O — body weight (mice, STZ diabetic neuropathy; dose not given, 14 days after STZ): 28.5 g and 34.1 g and 37 g and 30.4 g and 30.2 g
CCC1C(c2ccccc2)NC(c2ccccc2)CC1(O)c1ccc(F)cc1 (stereo not drawn) — remaining compound (human, microsomes or S9; 2 µM, 0.5 h): 83.9%
